Assay results from different studies.
Every numbered part comes from another study and shows a few of its results, in no order. Values joined by “and” are separate records of one study, mostly repeats; a detail may differ.

Block 1
Target: Beta-adrenergic receptor kinase 1 (GRK2, Homo sapiens, UniProt P25098)
Observed: enzyme activity
Mode: inhibitor
Concentration: 0.5 µM
Baseline: control
Quantity: remaining activity
Target sequence (P25098 1-689): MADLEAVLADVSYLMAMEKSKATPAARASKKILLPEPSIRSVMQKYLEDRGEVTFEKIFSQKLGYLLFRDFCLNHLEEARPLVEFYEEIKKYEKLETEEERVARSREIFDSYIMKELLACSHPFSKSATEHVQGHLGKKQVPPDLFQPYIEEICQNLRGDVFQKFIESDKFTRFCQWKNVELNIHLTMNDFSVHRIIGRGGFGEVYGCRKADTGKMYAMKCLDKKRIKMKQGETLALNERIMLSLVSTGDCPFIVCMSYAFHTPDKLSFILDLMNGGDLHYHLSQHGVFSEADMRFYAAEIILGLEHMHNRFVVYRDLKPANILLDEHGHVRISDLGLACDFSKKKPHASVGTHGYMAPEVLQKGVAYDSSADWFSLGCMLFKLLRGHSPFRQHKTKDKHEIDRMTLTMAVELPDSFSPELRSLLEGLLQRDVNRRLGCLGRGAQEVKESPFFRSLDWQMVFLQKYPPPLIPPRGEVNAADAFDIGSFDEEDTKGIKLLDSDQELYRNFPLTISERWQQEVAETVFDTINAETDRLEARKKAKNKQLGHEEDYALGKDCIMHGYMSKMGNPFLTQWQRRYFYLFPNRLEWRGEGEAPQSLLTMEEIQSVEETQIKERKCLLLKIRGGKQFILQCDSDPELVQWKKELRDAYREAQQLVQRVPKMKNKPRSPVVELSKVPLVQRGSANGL
Compound = Nc1[nH]nc2nnc(-c3c(-c4ccccc4)nn4ccccc34)cc12; value = 95%
Compound = Cc1nc(Nc2ncc(C(=O)Nc3c(C)cccc3Cl)s2)cc(N2CCN(CCO)CC2)n1; value = 97%
Compound = CCN1/C(=C/C(C)=O)Sc2ccc(OC)cc21; value = 95.5%
Compound = COc1cc2ncnc(N3CCN(C(=O)Nc4ccc(Oc5ccccc5)cc4)CC3)c2cc1OC; value = 96.7%
Compound = O=C(Nc1ccc(Cl)cc1)c1ccccc1NCc1ccncc1; value = 98.2%
Compound = Cn1cc(/C=C2\C(=O)Nc3ccc(S(N)(=O)=O)cc32)c2ccccc21; value = 100%
Compound = O=c1cc(N2CCOCC2)oc2c1ccc1ccccc12; value = 98.9%
Compound = COc1ccc(-c2cnc3c(-c4ccsc4)cnn3c2)cc1; value = 100%
Compound = CC(C)[C@H](CO)Nc1nc(Nc2cccc(Cl)c2)c2ncn(C(C)C)c2n1; value = 103%
Compound = CC(C)c1nn(-c2c(Cl)cccc2Cl)c2nc(Cc3ccc(OCCO)cc3)[nH]c(=O)c12; value = 94.8%
Compound = CC(=O)O/N=C1/C(c2c(O)[nH]c3cc(Br)ccc23)=Nc2ccccc21; value = 108%
Compound = O=C1NC(=O)/C(=C/c2ccc3nccnc3c2)S1; value = 93.3%
Compound = COc1cc2ncc(-c3ccccc3)nc2cc1OC; value = 95.8%
Compound = CCOc1cc2ncnc(Nc3cccc(Br)c3)c2cc1OCC; value = 95.4%
Compound = CN(C)CCCn1cc(C2=C(c3c[nH]c4ccccc34)C(=O)NC2=O)c2ccccc21; value = 96.5%
Compound = COc1cc2ncnc(Nc3ccc(OCc4ccccc4)cc3)c2cc1OC; value = 101%
Compound = Cc1ccc(NC(=O)c2ccc(CN3CCN(C)CC3)cc2)cc1Nc1nccc(-c2cccnc2)n1; value = 112%
Compound = Cn1cnc2cc3c(Nc4cccc(Br)c4)ncnc3cc21; value = 100%
Compound = CCC(=O)Nc1ccc2ncnc(Nc3cccc(Br)c3)c2c1; value = 112%
Compound = COc1ccc(Cl)cc1NC(=O)Nc1cc(C)nc2ccccc12; value = 100%
Compound = CS(=O)(=O)CCNCc1ccc(-c2ccc3ncnc(Nc4ccc(OCc5cccc(F)c5)c(Cl)c4)c3c2)o1; value = 94.8%
Compound = C[S+]([O-])c1ccc(-c2nc(-c3ccncc3)c(-c3ccc(F)cc3)[nH]2)cc1 (stereo not shown); value = 101%

Block 2
Target: 5-hydroxytryptamine receptor 1B (HTR1B, Homo sapiens, UniProt P28222)
Sequence of UniProt P28222 (whole entry, looked up): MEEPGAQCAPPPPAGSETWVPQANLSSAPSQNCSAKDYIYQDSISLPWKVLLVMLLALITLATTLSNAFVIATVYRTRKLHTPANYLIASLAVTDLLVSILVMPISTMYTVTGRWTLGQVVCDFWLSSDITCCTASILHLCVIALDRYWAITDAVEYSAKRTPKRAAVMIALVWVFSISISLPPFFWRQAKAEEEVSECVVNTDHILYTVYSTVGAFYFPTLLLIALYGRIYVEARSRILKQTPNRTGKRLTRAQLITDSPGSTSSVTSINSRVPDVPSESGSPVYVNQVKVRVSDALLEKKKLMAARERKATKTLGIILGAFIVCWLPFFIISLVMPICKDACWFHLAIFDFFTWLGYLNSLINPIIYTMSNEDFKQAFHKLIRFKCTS
Observed: binding
Technique: radioligand binding
Concentration: 10 µM
Quantity: inhibition
Compound = O[C@]1(C(F)(F)F)CCCC[C@H]1Nc1ccc(F)cc1; value = -3.12%
Compound = CNC(=O)Nc1ccc2c(c1)CC[C@]21OC(=O)N(CC(=O)N(Cc2ccc(F)cc2)[C@@H](C)C(F)(F)F)C1=O; value = 9.82%
Compound = Cc1ccccc1Oc1cc(-n2c(=O)cc(C(F)(F)F)[nH]c2=O)c2ccccc2c1Cl; value = 4.02%
Compound = Cc1ncc(-c2cc(Cl)ccc2F)cc1-n1c(=O)n(CC(N)=O)c2ccccc21; value = -7.07%
Compound = CN1C(=O)[C@@H](N2CCc3c(nn(Cc4ccccc4)c3Br)C2=O)COc2ccccc21; value = -3.35%
Compound = O=C(Nc1cccnn1)N1CC(CC=Cc2cncc(Oc3ccc(C(F)(F)F)cn3)n2)C1; value = 4.8%
Compound = COCCc1ccc(-c2c(C)nc3c(N4CCOCC4)ccnn23)cn1; value = -0.76%
Compound = Nc1c(C(=O)NCc2ccc(C(=O)NCCCC3CCCCC3)cc2)cnn1-c1ccccc1; value = 10.4%
Compound = CN1CCN(c2ccnc(NCCc3ccccc3)n2)CC1; value = 45.9%
Compound = Nc1nc(NCc2ccccc2)nc(-c2ccccc2CO)n1; value = 7.41%
Compound = CC(=O)Nc1ncc(CN2CCC[C@H](Cc3cc(C)nc(C)c3)C2)s1; value = -2.53%
Compound = O=C(Nc1cnc(Oc2ccc(F)cc2)nc1)N1CCc2ncccc2[C@@H]1c1ccc(F)cc1; value = 36.4%
Compound = CC[C@H](CC(=O)O)n1c(=O)c2ncccc2n(Cc2cn(C)c3cc(C)cc(C)c23)c1=O; value = 5.01%
Compound = CCC(=NO)C(C)=Cc1ccc(F)c(C)c1; value = -1.04%
Compound = CNC(=O)Nc1ccc2c(c1)[C@]1(CC2)OC(=O)N(CC(=O)N(Cc2ccc(F)cc2)[C@@H](C)C(F)(F)F)C1=O; value = 11.2%
Compound = O=C1c2ccc(Nc3ccc(F)cc3F)cc2CCc2ccc(OC[C@H](O)CO)cc21; value = 15.2%
Compound = COc1nc2ccc([C@@](O)(c3ccccc3)C3CCN(C(C)=O)CC3)cc2c(Cl)c1Cc1ccc(-n2cccn2)cc1; value = 8.87%
Compound = CCCOc1ccc([C@H]2[C@H](C(=O)O)[C@@H](c3ccc4c(c3)OCO4)CN2CC(=O)Nc2c(CC)cccc2CC)cc1; value = 4.31%
Compound = CS(=O)(=O)N1CCCC(NC(=O)[C@H](CCC2CCCCC2)NC(=O)c2ccc(CNC(=O)c3cnc4ccccn34)cc2)C1 (stereo partly shown); value = 10.9%
Compound = Cc1c(N2CCCC2)nc2ccc(Br)cc2c1C(=O)NC[C@H](CCC(=O)O)c1ccccc1Cl; value = -2.2%
Compound = CCOc1ccc(S(=O)(=O)Nc2ccc(Cl)cc2C#Cc2cnc(C(=O)O)cc2OC)c2ncccc12; value = -21.8%

Block 3
Cell line: HaCaT
Concentration: 100 µM
Time: 36 h
Quantity: viability
Compound = NS(=O)(=O)c1cc2c(cc1Cl)N=CNS2(=O)=O; value = 88.3%
Compound = Cn1c(=O)c2c(ncn2CCO)n(C)c1=O; value = 96.1%
Compound = CCC(C)(Oc1ccc(C2(c3ccc(OC(C)(CC)C(=O)O)cc3)CCCCC2)cc1)C(=O)O (stereo not shown); value = 99.3%
Compound = CCn1cc(C(=O)O)c(=O)c2ccc(C)nc21; value = 75.5%
Compound = CC(CCc1ccc(O)cc1)NCC(O)c1ccc(O)cc1 (stereo not shown); value = 58.6%
Compound = Cc1ncc([N+](=O)[O-])n1CC(C)O (stereo not shown); value = 82.5%
Compound = O=C1Nc2ccc(Cl)cc2[C@@](C#CC2CC2)(C(F)(F)F)O1; value = 6.08%
Compound = O=c1ccn([C@@H]2O[C@H](CO)[C@@H](O)[C@H]2O)c(=O)[nH]1; value = 99.9%
Compound = O=C(O)c1cccnc1Nc1cccc(C(F)(F)F)c1; value = 72.5%
Compound = CCCN(CCC)C(=O)C(CCC(=O)O)NC(=O)c1ccccc1 (stereo not shown); value = 91.4%
Compound = O=C(O)[C@@H]1CSCN1; value = 87.7%
Compound = O=C1CN(/N=C/c2ccc([N+](=O)[O-])o2)C(=O)N1; value = 27.3%
Compound = CC(=O)OCC(=O)NCCCOc1cccc(CN2CCCCC2)c1; value = 78.5%

Block 4
Target: Eukaryotic initiation factor 4A-III (Homo sapiens, UniProt P38919)
Sequence of UniProt P38919 (whole entry, looked up): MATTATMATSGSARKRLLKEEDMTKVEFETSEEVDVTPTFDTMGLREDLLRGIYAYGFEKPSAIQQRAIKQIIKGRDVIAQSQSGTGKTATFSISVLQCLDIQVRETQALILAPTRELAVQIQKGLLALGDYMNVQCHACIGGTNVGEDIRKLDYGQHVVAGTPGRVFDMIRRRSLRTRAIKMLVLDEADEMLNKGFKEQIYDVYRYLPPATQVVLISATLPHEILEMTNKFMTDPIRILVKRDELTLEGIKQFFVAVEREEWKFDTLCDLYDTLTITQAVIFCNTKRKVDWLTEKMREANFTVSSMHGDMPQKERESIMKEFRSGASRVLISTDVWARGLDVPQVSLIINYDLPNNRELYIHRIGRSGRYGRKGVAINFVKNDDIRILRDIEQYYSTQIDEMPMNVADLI
Observed: RNA clamping
Technique: fluorescence polarization
Concentration: concentration not given
Notes: mean of two replicates
With: FAM-labelled poly r(AG)8 RNA
Quantity: fluorescence polarization change
Compound = COC(=O)[C@@H]1[C@@H](c2ccccc2)[C@]2(c3ccc(OC)cc3)Oc3cc(OC)cc(OC)c3[C@@]23NC(c2ccc(N(C)C)cc2)=N[C@@]13O; value = 21.9 mP
Compound = COc1ccc([C@@]23Oc4cc(OC)cc(OC)c4[C@]2(O)[C@H](O)[C@H](C(=O)c2ccc(C)o2)[C@H]3c2ccccc2)cc1; value = 19 mP
Compound = COc1cc(OC)c2c(c1)O[C@@]1(c3ccc(Br)cc3)[C@H](c3ccccc3)C3=C(O[C@@H]4CCCN4C3=O)[C@@]21O; value = 43.2 mP
Compound = COc1cc(O)cc2c1[C@]1(O)[C@H](O)[C@H](C(=O)N(C)OC)[C@@H](c3ccccc3)[C@]1(c1ccc(Br)cc1)O2; value = 20.8 mP and 57.8 mP
Compound = COc1ccc([C@@]23Oc4cc(OC)cc(OC)c4[C@]2(O)c2nc(C4CC4)[nH]c(=O)c2[C@H]3c2ccccc2)cc1; value = 38.7 mP and 29.7 mP and 35 mP
Compound = COCCOCOC(=C(F)F)c1ccc([C@@H]2[C@@H](C(=O)N(C)OC)[C@@H](O)[C@@]3(O)c4c(OC)cc(OC)cc4O[C@@]23c2ccc(OC)cc2)cc1; value = -2.9 mP
Compound = COc1cc(OC)c2c(c1)O[C@@]1(c3ccc(Br)cc3)[C@H](c3ccccc3)C3=C(N[C@H]4CCCN4C3=O)[C@@]21O; value = 29.1 mP
Compound = COC(=O)[C@H]1C(=O)[C@@]2(NCCN(C)C)c3c(OC)cc(OC)cc3O[C@@]2(c2ccc(OC)cc2)[C@@H]1c1ccccc1; value = 5.1 mP

A few entries again (block 1):
Compound = COc1cc2ncnc(N3CCN(C(=O)Nc4ccc(Oc5ccccc5)cc4)CC3)c2cc1OC; value = 96.7%
Compound = Cn1cc(/C=C2\C(=O)Nc3ccc(S(N)(=O)=O)cc32)c2ccccc21; value = 100%
Compound = O=C1NC(=O)/C(=C/c2ccc3nccnc3c2)S1; value = 93.3%
